# Assay results from different studies.
# Each line is one published result; not all experiments were run side by side.
# UniProt P33261, sequence (whole entry, looked up): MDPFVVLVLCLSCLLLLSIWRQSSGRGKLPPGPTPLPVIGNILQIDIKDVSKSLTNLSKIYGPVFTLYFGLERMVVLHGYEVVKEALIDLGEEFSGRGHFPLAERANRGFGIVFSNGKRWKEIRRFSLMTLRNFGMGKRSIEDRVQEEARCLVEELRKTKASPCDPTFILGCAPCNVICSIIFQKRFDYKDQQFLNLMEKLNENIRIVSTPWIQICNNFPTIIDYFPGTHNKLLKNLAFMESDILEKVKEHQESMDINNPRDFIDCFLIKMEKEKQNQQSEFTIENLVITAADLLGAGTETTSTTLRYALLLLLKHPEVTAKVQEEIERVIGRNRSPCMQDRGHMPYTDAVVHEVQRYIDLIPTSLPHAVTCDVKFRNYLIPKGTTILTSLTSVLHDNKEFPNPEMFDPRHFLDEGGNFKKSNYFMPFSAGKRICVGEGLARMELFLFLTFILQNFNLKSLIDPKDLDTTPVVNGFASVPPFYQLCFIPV
# UniProt P10632, sequence (whole entry, looked up): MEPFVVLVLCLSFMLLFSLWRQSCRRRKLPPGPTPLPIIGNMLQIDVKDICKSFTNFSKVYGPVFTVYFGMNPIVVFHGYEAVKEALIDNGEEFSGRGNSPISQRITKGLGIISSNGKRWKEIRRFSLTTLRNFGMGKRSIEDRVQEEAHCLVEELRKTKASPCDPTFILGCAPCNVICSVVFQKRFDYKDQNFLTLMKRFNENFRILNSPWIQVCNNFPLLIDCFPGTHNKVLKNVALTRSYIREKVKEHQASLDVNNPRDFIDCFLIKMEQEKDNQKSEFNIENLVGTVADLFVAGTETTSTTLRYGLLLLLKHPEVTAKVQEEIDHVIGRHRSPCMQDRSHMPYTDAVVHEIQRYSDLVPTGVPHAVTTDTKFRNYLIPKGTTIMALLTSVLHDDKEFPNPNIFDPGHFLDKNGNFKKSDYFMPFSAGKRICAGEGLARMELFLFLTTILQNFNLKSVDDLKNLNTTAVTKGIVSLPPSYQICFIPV
# UniProt P08183, sequence (whole entry, looked up): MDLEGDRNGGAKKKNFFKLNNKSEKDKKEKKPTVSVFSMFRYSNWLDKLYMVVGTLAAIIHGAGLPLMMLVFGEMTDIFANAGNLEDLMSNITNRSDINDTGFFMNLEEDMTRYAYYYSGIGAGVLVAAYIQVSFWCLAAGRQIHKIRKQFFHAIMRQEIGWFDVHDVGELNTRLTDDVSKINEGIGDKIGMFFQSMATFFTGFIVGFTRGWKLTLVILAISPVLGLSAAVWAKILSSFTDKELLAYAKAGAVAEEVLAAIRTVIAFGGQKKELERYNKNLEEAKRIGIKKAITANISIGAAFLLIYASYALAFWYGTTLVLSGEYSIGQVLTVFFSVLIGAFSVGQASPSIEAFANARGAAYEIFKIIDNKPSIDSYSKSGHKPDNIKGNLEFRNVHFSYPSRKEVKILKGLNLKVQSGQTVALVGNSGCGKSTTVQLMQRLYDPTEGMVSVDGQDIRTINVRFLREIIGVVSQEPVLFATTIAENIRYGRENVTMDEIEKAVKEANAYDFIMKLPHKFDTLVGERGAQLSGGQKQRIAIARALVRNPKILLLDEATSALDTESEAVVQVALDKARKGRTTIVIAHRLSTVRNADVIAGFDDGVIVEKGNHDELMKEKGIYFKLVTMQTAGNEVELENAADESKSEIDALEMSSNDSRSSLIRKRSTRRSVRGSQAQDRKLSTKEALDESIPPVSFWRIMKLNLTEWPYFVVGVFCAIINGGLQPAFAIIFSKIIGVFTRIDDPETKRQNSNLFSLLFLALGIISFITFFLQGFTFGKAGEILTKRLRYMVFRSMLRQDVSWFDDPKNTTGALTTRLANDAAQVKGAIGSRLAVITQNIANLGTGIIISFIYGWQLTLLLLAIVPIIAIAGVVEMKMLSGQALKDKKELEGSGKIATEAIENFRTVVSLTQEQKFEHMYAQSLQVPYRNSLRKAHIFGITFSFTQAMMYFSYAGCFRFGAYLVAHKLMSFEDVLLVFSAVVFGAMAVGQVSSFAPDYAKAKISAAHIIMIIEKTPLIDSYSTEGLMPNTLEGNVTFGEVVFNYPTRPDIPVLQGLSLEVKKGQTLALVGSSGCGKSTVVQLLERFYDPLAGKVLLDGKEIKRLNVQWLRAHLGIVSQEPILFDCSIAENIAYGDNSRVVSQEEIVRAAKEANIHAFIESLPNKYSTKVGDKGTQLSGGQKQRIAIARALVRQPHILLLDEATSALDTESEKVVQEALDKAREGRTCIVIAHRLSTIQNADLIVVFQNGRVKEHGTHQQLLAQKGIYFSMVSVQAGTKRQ
SMILES,target or system,assay,test system,conditions,measurement,value
COC(=O)C1CCN(C(=O)c2cccc(NCc3cnc4nc(N)nc(N)c4n3)c2)CC1,"CYP2C19 (Homo sapiens, UniProt P33261)","enzyme activity, inhibitor, luciferase",,10 µM,inhibition,-19%
CC[C@@](O)(c1cnc(C(F)(F)F)c(Cl)c1)c1c2ccn(C3CC3)c(=O)c2nn1C,,nephelometry,aqueous buffer,"30 min, pH 6.5",kinetic solubility,40 to 80 µM
O=C(Nc1c2c(cc3c1CCC3)CCC2)NS(=O)(=O)/C=C/c1nccs1,"Cytochrome P450 2C8 (CYP2C8, Homo sapiens, UniProt P10632)","enzyme activity, inhibitor","human, liver microsomes","10 µM, pH 7.4",inhibition,85.5%
CC1(C)CCC2(CC1)N[C@@H](C(=O)N[C@@H]1CC[C@@H](C(N)=O)OC1)[C@H](c1ccnc(Cl)c1F)[C@]21C(=O)Nc2cc(Cl)ccc21,"ABCB1 (Homo sapiens, UniProt P08183)",,Caco-2,"30 µM, 2 h",efflux ratio,2.72
Cn1nc2c(=O)n(C3CC3)ccc2c1[C@](O)(c1ccc(F)c(Cl)c1)C(F)(F)F,,nephelometry,aqueous buffer,"30 min, pH 6.5",kinetic solubility,20 to 40 µM
Cc1ccc(N(CC(C)C)c2ccc(NC(=O)CN(C)c3ccccc3N3CCCC3=O)cc2)cc1,HepG2,"cell growth or viability, ATP luminescence",,48 h,CC50,> 40 µM
COc1ccc(C(=O)O)cc1NC(=O)/C=C/c1ccc(-c2ccccc2C)cc1,K562,cell growth or viability,,,IC50,28.4 µM
CC[C@@](O)(c1cnc(C(F)(F)F)c(Cl)c1)c1c2cnn(C3CC3)c(=O)c2nn1C,,nephelometry,aqueous buffer,"30 min, pH 6.5",kinetic solubility,25 to 50 µM
COc1cccc(OC)c1-c1cc(C(=O)NC2(C(=O)O)C3CC4CC(C3)CC2C4)nn1-c1ccc(C(=O)N(C)CCCN(C)CCCN(C)C(=O)CN2CCN(CC(=O)[O-])CCN(CC(=O)[O-])CCN(CC(=O)[O-])CC2)cc1C(C)C.[177Lu+3] (stereo not drawn),HT-29 tumour model,,"host not given, stomach","72 h, tumour-bearing",tracer uptake,0.037 %ID/g
O=C(c1ccc(F)cc1)C1CCN(CCn2c(=O)[nH]c3ccccc3c2=O)CC1,,metabolic stability,"rat, liver microsomes",30 min,compound remaining,34.2%
Cn1nc2c(=O)n(C3CC3)ccc2c1[C@](O)(c1cnc(C(F)(F)F)c(Cl)c1)C(F)(F)F,,nephelometry,aqueous buffer,"30 min, pH 6.5",kinetic solubility,20 to 40 µM
Cc1noc(C)c1Cn1cc(N2C(=O)CN(Cc3cccc(O)c3)C2=O)cn1,,,"male Sprague-Dawley rat, plasma","oral, 30 mg/kg, 8 h",concentration,5.02 ng/mL
COc1cccc(-c2n[nH]c(SCc3ccccn3)n2)c1OC,,,"female Sprague-Dawley rat, plasma","oral, 30 mg/kg, 2 h, single dose",concentration,7800 ng/mL
Nc1ccn([C@@H]2O[C@H](CO)[C@@H](O)C2(F)F)c(=O)n1,HEK293,"cell growth or viability, MTT",,"5 µg/mL, 24 h",viability,31.8%
CCn1cc(C2CC2)c2c([C@H](O)c3ccc(C(F)(F)F)nc3)n(C)nc2c1=O,,nephelometry,aqueous buffer,"30 min, pH 6.5",kinetic solubility,160 to 320 µM
